# Measured values gathered from unrelated publications.
# Every numbered part comes from another study and shows a few of its results, in no order. “And” joins repeats or separate records; there may be more than shown.
# UniProt Q15303, sequence (whole entry, looked up): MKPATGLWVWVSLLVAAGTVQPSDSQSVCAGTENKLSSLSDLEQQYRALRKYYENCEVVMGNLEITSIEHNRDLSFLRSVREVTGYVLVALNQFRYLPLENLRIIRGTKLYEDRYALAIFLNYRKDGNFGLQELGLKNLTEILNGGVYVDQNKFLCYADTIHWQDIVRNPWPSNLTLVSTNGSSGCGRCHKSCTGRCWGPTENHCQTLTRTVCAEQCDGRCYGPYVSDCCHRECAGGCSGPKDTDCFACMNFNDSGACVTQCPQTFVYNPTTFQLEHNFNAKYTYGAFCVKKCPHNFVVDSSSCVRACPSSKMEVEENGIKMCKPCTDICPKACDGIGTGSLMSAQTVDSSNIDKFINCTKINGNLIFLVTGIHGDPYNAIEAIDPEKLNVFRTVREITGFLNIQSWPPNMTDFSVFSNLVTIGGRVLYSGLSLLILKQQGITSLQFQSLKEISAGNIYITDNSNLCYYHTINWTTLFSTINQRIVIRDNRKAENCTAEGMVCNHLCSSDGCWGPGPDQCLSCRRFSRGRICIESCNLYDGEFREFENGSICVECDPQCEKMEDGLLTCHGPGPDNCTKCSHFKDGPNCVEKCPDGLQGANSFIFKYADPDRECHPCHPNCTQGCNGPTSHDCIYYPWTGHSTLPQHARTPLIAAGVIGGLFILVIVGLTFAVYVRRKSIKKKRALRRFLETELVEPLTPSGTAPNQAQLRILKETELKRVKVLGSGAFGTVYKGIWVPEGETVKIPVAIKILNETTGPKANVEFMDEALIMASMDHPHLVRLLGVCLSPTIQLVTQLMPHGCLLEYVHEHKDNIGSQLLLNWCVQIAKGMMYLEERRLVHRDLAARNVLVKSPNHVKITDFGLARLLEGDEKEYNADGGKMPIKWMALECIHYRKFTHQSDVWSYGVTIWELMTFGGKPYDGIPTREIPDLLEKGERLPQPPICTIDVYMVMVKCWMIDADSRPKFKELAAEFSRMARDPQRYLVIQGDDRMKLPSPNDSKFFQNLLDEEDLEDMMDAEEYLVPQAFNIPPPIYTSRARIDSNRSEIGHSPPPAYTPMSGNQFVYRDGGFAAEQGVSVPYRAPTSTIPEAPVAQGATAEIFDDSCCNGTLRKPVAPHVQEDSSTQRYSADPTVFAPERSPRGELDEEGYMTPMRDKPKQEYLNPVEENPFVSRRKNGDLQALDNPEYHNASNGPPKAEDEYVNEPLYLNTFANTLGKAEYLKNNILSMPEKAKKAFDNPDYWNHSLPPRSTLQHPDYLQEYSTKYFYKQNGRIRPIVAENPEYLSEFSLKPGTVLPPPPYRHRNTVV
# UniProt Q16620, sequence (whole entry, looked up): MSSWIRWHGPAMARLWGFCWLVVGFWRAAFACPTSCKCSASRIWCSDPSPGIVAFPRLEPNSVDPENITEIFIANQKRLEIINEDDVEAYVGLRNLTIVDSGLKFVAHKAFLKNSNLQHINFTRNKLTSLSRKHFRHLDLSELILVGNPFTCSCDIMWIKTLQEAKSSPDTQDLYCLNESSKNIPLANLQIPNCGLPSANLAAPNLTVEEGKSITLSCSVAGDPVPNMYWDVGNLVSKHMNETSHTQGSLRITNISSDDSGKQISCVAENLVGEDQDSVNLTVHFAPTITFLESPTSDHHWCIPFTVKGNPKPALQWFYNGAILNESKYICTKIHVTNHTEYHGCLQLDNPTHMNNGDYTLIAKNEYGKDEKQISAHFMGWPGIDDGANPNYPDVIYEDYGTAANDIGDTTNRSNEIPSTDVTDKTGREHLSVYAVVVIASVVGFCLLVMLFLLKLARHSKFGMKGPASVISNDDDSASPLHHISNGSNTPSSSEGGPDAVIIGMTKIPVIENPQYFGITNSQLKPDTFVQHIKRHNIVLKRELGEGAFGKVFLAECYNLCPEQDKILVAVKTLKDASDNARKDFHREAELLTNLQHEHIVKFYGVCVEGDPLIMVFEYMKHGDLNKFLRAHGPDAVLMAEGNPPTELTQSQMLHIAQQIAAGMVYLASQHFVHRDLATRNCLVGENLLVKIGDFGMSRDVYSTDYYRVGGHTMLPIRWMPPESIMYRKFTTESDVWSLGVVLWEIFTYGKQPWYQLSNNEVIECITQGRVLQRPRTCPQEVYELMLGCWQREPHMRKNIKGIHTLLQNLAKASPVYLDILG
# UniProt P45983, sequence (whole entry, looked up): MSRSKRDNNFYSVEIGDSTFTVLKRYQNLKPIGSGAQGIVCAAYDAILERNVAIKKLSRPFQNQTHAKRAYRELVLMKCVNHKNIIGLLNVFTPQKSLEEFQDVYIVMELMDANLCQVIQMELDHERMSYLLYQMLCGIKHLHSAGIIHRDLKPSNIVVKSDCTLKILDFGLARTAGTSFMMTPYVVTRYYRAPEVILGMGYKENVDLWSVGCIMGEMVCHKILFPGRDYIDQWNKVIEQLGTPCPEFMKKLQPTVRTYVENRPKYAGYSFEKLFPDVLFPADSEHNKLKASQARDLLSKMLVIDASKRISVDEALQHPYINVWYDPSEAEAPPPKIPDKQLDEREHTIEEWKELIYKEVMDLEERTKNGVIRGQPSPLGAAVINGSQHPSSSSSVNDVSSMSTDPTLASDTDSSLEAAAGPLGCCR
# UniProt Q9Y2I7, sequence (whole entry, looked up): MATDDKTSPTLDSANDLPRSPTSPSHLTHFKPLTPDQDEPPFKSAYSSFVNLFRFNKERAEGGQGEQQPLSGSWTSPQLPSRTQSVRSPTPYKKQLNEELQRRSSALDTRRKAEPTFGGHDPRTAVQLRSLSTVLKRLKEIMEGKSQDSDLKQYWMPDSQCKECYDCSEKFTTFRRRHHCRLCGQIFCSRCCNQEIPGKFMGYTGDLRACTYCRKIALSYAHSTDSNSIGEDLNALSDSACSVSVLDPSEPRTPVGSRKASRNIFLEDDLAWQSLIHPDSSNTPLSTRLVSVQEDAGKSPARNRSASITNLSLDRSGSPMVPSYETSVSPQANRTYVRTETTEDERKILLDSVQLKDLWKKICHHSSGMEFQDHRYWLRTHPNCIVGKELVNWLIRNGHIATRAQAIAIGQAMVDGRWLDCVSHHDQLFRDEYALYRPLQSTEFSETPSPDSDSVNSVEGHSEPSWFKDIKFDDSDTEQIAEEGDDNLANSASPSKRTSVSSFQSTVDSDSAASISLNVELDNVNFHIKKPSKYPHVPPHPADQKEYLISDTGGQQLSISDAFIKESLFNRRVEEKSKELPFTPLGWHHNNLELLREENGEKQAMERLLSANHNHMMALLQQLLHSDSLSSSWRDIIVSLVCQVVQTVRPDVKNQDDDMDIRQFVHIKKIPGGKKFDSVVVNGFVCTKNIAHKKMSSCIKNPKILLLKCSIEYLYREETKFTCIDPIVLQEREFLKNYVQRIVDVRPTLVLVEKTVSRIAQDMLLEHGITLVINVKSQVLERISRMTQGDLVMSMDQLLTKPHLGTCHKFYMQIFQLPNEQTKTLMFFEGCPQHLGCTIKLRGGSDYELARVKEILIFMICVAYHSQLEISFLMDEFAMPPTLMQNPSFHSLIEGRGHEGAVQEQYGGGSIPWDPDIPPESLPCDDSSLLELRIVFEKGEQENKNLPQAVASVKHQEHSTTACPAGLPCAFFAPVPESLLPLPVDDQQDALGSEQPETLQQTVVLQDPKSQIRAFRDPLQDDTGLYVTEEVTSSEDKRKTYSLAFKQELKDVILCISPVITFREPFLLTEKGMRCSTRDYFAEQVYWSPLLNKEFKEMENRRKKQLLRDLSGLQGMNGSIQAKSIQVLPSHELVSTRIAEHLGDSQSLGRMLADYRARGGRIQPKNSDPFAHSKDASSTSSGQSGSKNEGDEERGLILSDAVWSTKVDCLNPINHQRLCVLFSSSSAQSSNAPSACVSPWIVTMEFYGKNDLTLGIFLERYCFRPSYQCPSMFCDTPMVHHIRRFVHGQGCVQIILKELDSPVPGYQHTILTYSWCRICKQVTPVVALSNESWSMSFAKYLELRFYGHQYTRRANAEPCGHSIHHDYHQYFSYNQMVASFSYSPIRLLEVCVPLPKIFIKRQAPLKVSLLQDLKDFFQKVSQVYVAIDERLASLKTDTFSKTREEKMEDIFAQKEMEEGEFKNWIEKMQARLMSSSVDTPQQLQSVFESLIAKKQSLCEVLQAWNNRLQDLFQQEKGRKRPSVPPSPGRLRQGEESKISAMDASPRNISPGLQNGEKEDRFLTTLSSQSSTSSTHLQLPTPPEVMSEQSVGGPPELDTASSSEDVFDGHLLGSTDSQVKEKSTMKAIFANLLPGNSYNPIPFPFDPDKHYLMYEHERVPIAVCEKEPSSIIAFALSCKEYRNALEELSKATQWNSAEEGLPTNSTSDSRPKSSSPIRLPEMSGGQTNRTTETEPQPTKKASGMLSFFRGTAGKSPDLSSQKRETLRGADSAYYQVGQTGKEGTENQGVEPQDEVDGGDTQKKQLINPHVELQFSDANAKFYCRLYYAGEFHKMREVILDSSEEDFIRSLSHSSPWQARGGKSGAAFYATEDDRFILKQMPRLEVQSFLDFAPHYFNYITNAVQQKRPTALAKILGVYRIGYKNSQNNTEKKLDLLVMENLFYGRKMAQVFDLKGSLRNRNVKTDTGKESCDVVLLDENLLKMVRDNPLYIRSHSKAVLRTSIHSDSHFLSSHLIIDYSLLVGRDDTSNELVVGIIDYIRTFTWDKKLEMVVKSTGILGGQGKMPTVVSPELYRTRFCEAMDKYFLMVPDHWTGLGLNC
# UniProt P50613, sequence (whole entry, looked up): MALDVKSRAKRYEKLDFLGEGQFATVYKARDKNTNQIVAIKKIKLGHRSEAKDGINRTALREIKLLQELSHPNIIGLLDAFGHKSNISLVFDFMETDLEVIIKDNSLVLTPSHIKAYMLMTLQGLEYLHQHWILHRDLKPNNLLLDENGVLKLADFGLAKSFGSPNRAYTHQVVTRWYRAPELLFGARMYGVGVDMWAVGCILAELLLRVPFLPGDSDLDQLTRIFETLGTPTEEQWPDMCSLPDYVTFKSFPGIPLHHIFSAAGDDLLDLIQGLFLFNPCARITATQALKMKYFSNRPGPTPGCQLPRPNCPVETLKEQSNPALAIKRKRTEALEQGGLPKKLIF

# Set 1 — read-out: cell-free assay; method: competition with immobilised ligand; tested at: 1 µM
# Compound: CS(=O)(=O)c1cc(C2(NC(=O)c3cncc4c3cnn4-c3ccc(F)cc3)CC2)ccn1
target,remaining binding
"NTRK2 (Homo sapiens, UniProt Q16620)",91%
"NEK6 (Homo sapiens, UniProt Q9HC98)",100%
"INSRR (Homo sapiens, UniProt P14616)",65%
"EGFR (Homo sapiens, UniProt P00533, L861Q)",100%
"ITK (Homo sapiens, UniProt Q08881)",89%
"Tyrosine-protein kinase ABL1, non-phosphorylated (ABL1, Homo sapiens, UniProt P00519)",86%
"CSNK1G2 (Homo sapiens, UniProt P78368)",100%
"VRK2 (Homo sapiens, UniProt Q86Y07)",100%
"HIPK2 (Homo sapiens, UniProt Q9H2X6)",100%
"CDK7 (Homo sapiens, UniProt P50613)",90%
"ERBB4 (Homo sapiens, UniProt Q15303)",100%
"NEK7 (Homo sapiens, UniProt Q8TDX7)",100%
"MAPK8 (Homo sapiens, UniProt P45983)",95%
"MAP2K3 (Homo sapiens, UniProt P46734)",88%
"PIKFYVE (Homo sapiens, UniProt Q9Y2I7)",79%
"SBK1 (Homo sapiens, UniProt Q52WX2)",95%

# Set 2 — read-out: enzyme activity; action: inhibitor; tested at: 0.5 µM; baseline: control
# Target: Serine/threonine-protein kinase Nek7 (NEK7, Homo sapiens, UniProt Q8TDX7)
# Residues (Q8TDX7 1-302): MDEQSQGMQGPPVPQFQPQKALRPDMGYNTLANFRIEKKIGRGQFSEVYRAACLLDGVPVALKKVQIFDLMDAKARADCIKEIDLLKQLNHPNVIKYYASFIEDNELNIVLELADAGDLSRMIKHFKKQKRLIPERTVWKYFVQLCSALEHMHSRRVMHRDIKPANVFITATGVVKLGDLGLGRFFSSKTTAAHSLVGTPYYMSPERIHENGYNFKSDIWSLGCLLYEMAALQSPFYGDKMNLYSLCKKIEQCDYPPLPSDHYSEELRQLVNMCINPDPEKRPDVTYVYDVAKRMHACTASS
SMILES,remaining activity [%]
Cc1cncc2cccc(S(=O)(=O)N3CCCN(C(=O)CN)C[C@@H]3C)c12,103
CSc1nc(-c2ccnc(N[C@@H](C)c3ccccc3)c2)c(-c2ccc(F)cc2)[nH]1 (racemic),89.6
NC(=O)c1ccc(N(C(N)=O)c2c(F)cccc2F)nc1-c1ccc(F)cc1F,90.1
Nc1ncnc2c1cnn2-c1ccccc1,106
O=C1Cc2c([nH]c3ccc([N+](=O)[O-])cc23)-c2ccccc2N1,89.7
Nc1nccc(-c2c(-c3ccc(F)cc3)ncn2C2CCNCC2)n1,98.9
CCCC(=O)Oc1ccc2[nH]c(C(=O)c3cc4ccccc4[nH]3)cc2c1,95.5
CC[n+]1c(/C=C/N(C)c2ccccc2)n(-c2ccccc2)c2ccc(-c3nc4ccccc4s3)cc21,95.4
CC#CC(=O)Nc1cc2c(Nc3ccc(F)c(Cl)c3)ncnc2cn1,98.2
CCc1[nH]c(-c2ccc(OC)cc2)nc1-c1ccncc1,99.8
Cc1ccc(NC2=CC(=O)c3sc(C)nc3C2=O)cc1,96.9
Fc1ccc(-c2nc3n(c2-c2ccncc2)CCS3)cc1,105
Cc1cc(Nc2nc(-c3ccccc3)nc3ccccc23)n[nH]1,97.7
O=C1NC(=O)C(c2c[nH]c3ccccc23)=C1c1c[nH]c2ccccc12,99.9
COc1cc(Nc2c(C#N)cnc3cc(OCCCN4CCN(C)CC4)c(OC)cc23)c(Cl)cc1Cl,94.6
N#CC(=C(N)Sc1ccc(N)cc1)c1ccccc1C(F)(F)F,93.9
Nc1nc(Nc2ccc(S(N)(=O)=O)cc2)nn1C(=O)c1c(F)cccc1F,99
CC(=O)c1ccc(N2CCOCC2)cc1O,101
COc1ccc(S(=O)(=O)N(CCO)c2ccccc2CN(C)CC=Cc2ccc(Cl)cc2)cc1,93.4

# Set 3 — method: Incucyte 3D growth; tested at: 30 µM; direction: higher = more growth
# SMILES: CC(C)(C(=O)O)[C@H](NC(=O)Cc1cccc(I)c1)c1ccc2oc(=O)[nH]c2c1
cell line,time,spheroid area
A375,12.52 h,1.07e+07 a.u. and 1.3e+07 a.u. and 1.08e+07 a.u. and 1.02e+07 a.u. and 1.25e+07 a.u.
A375,114 h,7.65e+07 a.u. and 6.45e+07 a.u. and 5.96e+07 a.u. and 6.21e+07 a.u. and 7.36e+07 a.u. and 7.59e+07 a.u.
MEL-JUSO,198.52 h,1.54e+07 a.u. and 1.87e+07 a.u. and 1.44e+07 a.u. and 1.55e+07 a.u. and 2.31e+07 a.u. and 1.83e+07 a.u.
KP-4,162 h,2.73e+07 a.u. and 1.77e+07 a.u. and 2.38e+07 a.u. and 2.26e+07 a.u. and 2.78e+07 a.u.
IPC-298,30 h,1.66e+07 a.u. and 2.25e+07 a.u. and 2.6e+07 a.u. and 1.99e+07 a.u. and 2.35e+07 a.u. and 2.43e+07 a.u.
IPC-298,66 h,3.4e+07 a.u. and 3.15e+07 a.u. and 3.06e+07 a.u. and 2.63e+07 a.u. and 3.58e+07 a.u. and 2.91e+07 a.u.
KP-4,102 h,1.92e+07 a.u. and 1.75e+07 a.u. and 1.9e+07 a.u. and 1.8e+07 a.u. and 1.47e+07 a.u. and 1.6e+07 a.u.

# Set 4 — host: mouse; matrix: microsomes or S9; tested at: 2 µM; time: 0.5 h
SMILES,remaining compound [%]
CNc1cc(Cn2c(C(=O)c3cc(C)cc(Br)c3)c(C(C)C)c(=O)[nH]c2=O)cc(F)n1,5.23
c1ccc2c(c1)CCCC2N1CCC2(CC1)Oc1ccccc1C1CC(c3ccncc3)=NN12 (centres unmarked),1.42
O=C1c2ccsc2CCC1N1CCN(c2ncccn2)CC1 (centres unmarked),0.245
COC(=O)c1ccc(-c2noc(C(C)C)n2)cc1Cl,0
COc1ccc(NC(=O)CCc2c(C)n(Cc3ccccc3)c3nc(-c4ccccc4)nn3c2=O)cc1,1.71
Cc1c(C(=O)OC(C)C)sc2ncn(CC(=O)O)c(=O)c12,84.1
Cc1nn(-c2ccccn2)c2c1-c1oncc1CC2,1.15
COCCN(C)S(=O)(=O)c1cc2c(cc1Oc1ccc(Cl)cc1)Oc1ccc(C)cc1NC2=O,0.44
CN(CC#N)C(=O)C1=C(c2ccccc2)OCCS1,0.561
O=C1CCCC1CC/C=C/S(=O)(=O)c1ccccc1 (centres unmarked),0.997
CC(C)Cc1ccc(C(C)C(=O)Nc2ccc(O)cc2C(=O)O)cc1 (centres unmarked),70.8
COc1ccccc1-n1nc2c(C)nnc(C)c2c1C,81
O=C(N1CCn2c1nc1ccccc12)C1(c2cccs2)CCCC1,1.96
COc1ccccc1N1C(=O)c2cc3ccccc3n2CC1(C)C(=O)NC1CCCCCCC1 (centres unmarked),1.85

# A few entries again (set 4):
SMILES,remaining compound [%]
CC(C)Cc1ccc(C(C)C(=O)Nc2ccc(O)cc2C(=O)O)cc1 (centres unmarked),70.8
O=C(N1CCn2c1nc1ccccc12)C1(c2cccs2)CCCC1,1.96
COCCN(C)S(=O)(=O)c1cc2c(cc1Oc1ccc(Cl)cc1)Oc1ccc(C)cc1NC2=O,0.44
O=C1CCCC1CC/C=C/S(=O)(=O)c1ccccc1 (centres unmarked),0.997
